Measurements collected from several papers.
Protocols differ between the studies behind these lines. “And” joins repeats or separate records; there may be more than shown. ± gives the spread as reported.
Sequence of UniProt O76090 (whole entry, unmodified, looked up): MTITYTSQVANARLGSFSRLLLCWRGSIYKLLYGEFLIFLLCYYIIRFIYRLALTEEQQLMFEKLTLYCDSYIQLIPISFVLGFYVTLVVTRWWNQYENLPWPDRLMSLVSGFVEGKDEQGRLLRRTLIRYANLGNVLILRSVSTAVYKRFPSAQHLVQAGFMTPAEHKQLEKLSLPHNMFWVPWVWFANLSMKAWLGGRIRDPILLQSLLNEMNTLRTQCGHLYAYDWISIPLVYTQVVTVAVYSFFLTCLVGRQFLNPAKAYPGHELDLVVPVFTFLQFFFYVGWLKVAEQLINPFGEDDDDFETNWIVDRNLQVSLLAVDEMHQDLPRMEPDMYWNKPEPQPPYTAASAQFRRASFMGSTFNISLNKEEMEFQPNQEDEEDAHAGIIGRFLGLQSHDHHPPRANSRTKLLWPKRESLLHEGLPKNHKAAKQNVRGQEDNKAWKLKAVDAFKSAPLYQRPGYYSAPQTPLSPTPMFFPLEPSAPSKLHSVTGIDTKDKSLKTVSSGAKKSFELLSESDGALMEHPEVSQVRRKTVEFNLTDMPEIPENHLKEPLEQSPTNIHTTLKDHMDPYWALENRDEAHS
Sequence of UniProt O15305 (whole entry, looked up): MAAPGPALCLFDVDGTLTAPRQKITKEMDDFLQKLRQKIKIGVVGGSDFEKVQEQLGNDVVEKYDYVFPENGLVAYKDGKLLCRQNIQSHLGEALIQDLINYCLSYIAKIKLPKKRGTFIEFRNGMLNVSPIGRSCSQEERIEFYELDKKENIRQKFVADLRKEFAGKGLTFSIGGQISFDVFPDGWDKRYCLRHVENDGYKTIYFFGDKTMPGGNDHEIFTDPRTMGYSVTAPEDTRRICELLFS
Sequence of UniProt Q14524 (whole entry, looked up): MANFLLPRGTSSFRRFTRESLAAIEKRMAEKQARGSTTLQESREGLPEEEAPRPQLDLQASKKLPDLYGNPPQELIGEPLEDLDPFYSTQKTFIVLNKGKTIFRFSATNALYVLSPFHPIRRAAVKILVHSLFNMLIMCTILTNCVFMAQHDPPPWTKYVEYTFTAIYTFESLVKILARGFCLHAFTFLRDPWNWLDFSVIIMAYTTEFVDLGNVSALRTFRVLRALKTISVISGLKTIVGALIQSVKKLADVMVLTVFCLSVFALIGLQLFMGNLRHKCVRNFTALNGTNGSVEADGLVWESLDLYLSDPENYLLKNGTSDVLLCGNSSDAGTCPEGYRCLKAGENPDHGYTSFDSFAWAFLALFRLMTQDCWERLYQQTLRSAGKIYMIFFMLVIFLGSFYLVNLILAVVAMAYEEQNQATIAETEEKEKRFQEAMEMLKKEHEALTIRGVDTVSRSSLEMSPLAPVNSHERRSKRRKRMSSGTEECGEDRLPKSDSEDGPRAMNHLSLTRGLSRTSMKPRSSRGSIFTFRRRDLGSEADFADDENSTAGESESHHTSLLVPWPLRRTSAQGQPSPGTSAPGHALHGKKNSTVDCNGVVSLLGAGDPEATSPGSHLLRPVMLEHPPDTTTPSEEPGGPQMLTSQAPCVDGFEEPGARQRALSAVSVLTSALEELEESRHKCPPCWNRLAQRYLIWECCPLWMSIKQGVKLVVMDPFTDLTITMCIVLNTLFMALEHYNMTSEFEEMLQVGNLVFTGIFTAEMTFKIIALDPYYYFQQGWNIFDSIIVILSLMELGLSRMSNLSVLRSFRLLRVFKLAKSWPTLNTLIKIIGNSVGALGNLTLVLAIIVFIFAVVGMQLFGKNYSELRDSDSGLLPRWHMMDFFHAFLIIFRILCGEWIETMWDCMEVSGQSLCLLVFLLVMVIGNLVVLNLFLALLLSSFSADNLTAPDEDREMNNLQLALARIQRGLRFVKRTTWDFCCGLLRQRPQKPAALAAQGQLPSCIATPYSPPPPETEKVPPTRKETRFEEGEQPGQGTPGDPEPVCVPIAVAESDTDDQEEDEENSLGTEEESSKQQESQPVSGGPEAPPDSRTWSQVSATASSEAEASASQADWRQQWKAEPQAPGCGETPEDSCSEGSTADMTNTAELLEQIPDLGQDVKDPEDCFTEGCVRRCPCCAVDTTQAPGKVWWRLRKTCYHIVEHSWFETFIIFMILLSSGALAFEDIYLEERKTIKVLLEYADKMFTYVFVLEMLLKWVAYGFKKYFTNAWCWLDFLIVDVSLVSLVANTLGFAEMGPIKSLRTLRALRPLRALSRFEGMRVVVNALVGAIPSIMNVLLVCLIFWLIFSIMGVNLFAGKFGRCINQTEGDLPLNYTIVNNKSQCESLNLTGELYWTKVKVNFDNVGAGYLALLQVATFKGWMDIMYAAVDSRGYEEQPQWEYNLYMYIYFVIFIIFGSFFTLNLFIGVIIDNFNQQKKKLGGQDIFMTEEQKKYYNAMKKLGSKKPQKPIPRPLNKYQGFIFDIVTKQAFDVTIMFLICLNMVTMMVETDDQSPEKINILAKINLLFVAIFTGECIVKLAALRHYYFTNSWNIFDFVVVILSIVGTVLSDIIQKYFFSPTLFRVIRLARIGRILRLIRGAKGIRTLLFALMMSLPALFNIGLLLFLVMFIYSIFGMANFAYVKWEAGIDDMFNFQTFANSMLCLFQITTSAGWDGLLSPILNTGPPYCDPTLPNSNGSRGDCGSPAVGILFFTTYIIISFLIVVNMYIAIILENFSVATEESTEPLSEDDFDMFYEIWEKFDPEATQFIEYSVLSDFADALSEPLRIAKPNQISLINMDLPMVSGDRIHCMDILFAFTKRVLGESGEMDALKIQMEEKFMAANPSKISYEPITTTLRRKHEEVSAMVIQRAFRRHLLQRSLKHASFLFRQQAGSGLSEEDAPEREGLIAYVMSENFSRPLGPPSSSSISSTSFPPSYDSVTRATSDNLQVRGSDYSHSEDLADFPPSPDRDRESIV
Sequence of UniProt P00519 (whole entry, unmodified, looked up): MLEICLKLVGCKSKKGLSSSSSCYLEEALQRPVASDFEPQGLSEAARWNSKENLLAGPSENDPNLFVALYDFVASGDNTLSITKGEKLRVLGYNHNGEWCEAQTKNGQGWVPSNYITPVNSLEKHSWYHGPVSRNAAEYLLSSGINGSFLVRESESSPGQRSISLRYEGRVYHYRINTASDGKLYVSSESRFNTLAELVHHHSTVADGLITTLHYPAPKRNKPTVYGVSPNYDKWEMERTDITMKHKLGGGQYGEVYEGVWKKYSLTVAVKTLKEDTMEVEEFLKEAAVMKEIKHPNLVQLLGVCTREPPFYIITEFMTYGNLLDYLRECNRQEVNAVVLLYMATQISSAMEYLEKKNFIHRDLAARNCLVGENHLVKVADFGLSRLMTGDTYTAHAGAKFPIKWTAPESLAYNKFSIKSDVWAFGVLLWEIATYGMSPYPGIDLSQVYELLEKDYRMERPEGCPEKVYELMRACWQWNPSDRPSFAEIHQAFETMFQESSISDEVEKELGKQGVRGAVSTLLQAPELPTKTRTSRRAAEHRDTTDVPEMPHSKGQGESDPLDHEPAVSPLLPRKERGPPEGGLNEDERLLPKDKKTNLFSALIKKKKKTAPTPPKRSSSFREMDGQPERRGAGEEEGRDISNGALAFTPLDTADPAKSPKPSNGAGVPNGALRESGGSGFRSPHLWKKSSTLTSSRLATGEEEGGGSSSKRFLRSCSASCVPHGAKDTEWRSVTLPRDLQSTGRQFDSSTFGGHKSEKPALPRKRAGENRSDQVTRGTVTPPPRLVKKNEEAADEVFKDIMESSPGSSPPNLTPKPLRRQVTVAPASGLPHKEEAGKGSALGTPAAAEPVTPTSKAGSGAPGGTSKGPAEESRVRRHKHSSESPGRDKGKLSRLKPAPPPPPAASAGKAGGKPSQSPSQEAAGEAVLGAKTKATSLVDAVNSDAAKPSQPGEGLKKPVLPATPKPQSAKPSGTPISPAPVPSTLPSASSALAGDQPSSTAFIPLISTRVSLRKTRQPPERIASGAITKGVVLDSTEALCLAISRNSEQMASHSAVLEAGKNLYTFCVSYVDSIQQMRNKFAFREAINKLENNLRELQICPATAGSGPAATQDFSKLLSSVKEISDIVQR
Sequence of UniProt Q01105 (whole entry, looked up): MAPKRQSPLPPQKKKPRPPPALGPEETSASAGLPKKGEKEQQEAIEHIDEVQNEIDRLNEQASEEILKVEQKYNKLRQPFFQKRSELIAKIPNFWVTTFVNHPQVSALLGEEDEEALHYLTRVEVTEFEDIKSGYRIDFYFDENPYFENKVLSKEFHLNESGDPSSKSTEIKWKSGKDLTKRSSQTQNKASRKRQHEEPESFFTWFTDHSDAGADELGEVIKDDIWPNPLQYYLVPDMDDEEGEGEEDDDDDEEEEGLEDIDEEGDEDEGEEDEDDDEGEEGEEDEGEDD
Sequence of UniProt P62813 (whole entry, looked up): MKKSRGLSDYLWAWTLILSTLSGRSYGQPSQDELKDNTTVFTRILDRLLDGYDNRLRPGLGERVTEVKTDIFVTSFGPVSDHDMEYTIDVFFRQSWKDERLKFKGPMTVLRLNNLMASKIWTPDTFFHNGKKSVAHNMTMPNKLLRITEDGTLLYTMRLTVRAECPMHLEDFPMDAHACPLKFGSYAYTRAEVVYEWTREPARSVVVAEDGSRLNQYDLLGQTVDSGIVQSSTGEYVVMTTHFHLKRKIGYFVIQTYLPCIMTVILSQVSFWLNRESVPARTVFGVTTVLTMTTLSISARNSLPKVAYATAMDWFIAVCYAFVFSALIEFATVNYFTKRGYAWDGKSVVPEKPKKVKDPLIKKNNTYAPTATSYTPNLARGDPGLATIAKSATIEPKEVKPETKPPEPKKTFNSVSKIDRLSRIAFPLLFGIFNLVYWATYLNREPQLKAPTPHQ
Sequence of UniProt P25963 (whole entry, unmodified, looked up): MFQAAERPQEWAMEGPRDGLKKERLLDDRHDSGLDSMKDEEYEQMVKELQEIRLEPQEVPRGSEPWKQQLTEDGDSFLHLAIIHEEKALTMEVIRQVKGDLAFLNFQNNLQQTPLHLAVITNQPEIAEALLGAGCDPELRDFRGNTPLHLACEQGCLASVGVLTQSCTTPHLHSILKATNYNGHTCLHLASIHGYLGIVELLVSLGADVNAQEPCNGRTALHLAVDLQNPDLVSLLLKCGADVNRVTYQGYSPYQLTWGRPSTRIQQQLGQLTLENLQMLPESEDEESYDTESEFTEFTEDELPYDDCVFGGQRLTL

Structure (SMILES)	target	test	test system	conditions	how to read	endpoint	value
CCCCCCCCCCCCC/C=C/[C@@H](O)[C@H](CO)NC(=O)CCCCCCCCCCCCCCC	Protein SET (SET, Homo sapiens, UniProt Q01105)	lipid binding, GFP pull-down LC-MS/MS	A549 overexpressing GFP-tagged protein	ER-targeted construct	reference: eluate plus flow-through	lipid fraction bound	12.3%
CC[C@@H]1[C@H](F)C(=O)N[C@@H]1COc1nccc2cc(C(N)=O)c(OC)cc12	Aurora kinase A (AURKA, Homo sapiens, UniProt O14965)	ATP probe binding, KiNativ profiling, measured: Lys2 probe site	THP-1 cell lysate	0.04 mM	–	inhibition	-6.4%
O=c1nc(SCc2cc(F)cc(C(F)(F)F)c2)nc(SCc2ccc3nc(Cl)ccc3c2)[nH]1	DNA topoisomerase 2-alpha (TOP2A, Homo sapiens, UniProt P11388)	DNA relaxation	–	15.6 µM, replicate 2	–	relaxed DNA	98.9%
Cc1ccc(-c2cc(C(=O)NCCN(C)C)c3cc(Br)ccc3n2)o1	Trypanothione reductase (TPR, Trypanosoma brucei brucei, UniProt P39051)	enzyme activity, inhibitor, DTNB-coupled colourimetric	Trypanosoma brucei	–	–	Hill slope	1.13 ± 0.05
O=S(=O)(O)C1CCNCC1	GABA-A receptor; alpha-1/beta-2/gamma-2 (Rattus norvegicus, UniProt P18508+P62813+P63138)	chloride current, agonist, whole-cell patch clamp	HEK293 expressing GABAA	30 s	reference: maximum	maximal response	89%
O=C(COP(=O)(O)O)[C@@H](O)[C@H](O)[C@H](O)COP(=O)(O)O	Phosphomannomutase 2 (PMM2, Homo sapiens, UniProt O15305)	–	–	0.001 mM, unit not given	reference: activity at 0 mM set to 100	enzyme activity	97.7 and 97.6 and 95.7
CC[C@H](C)[C@H](NC(=O)[C@H](CCCNC(=N)N)NC(=O)[C@H](Cc1c[nH]cn1)NC(=O)[C@H](CCCNC(=N)N)NC(=O)[C@H](CC(=O)O)NC(=O)[C@H](CC(=O)O)NC(=O)[C@@H](NC(=O)[C@H](CC(=O)O)NC(=O)[C@@H]1CCCN1C(=O)[C@@H](N)CC(C)C)[C@@H](C)O)C(=O)N[C@@H](CCC(=O)O)C(=O)N[C@@H](CCC(=O)O)C(=O)N[C@@H](CCCCN)C(=O)N[C@@H](CCCNC(=N)N)C(=O)N[C@@H](CCCCN)C(=O)N[C@@H](CCCNC(=N)N)C(=O)N[C@H](C(=O)N[C@@H](Cc1ccc(O)cc1)C(=O)N[C@@H](CCC(=O)O)C(=O)N[C@H](C(=O)N[C@@H](Cc1ccccc1)C(=O)N[C@@H](CCCCN)C(=O)N[C@@H](CO)C(=O)N[C@H](C(=O)N[C@@H](CCSC)C(=O)N[C@@H](CCCCN)C(=O)N[C@@H](CCCCN)C(=O)N[C@@H](CO)C(=O)N1CCC[C@H]1C(=O)N[C@@H](Cc1ccccc1)C(=O)N[C@@H](CC(N)=O)C(=O)NCC(=O)N1CCC[C@H]1C(=O)O)[C@@H](C)CC)[C@@H](C)O)[C@@H](C)O	NF-kappa-B inhibitor alpha (Homo sapiens, UniProt P25963)	binding, ITC	–	pH 7.5, 293 K, 50 mM NaCl	–	ΔH	-3.7 ± 0.03 kcal/mol
N[C@H](COP(=O)(O)O)Cc1c[nH]cn1	Gamma1	substrate, coupled phosphate release	–	–	–	Km	69 ± 10 µM
CCc1cnn2c(NCc3ccc[n+]([O-])c3)cc(N3CCCC[C@H]3CCO)nc12	Bromodomain-containing protein 4 (BRD4, Homo sapiens, UniProt O60885)	19F NMR, measured: tyrosine 65	–	24 µM	reference: free protein	chemical shift change	-0.002 ppm
O=C(O)c1ccc(Nc2ncc3c(n2)-c2ccc(Cl)cc2C(c2c(F)cccc2F)=NC3)cc1	ROCK-II(r)	kinase activity	–	1 µM	–	remaining activity	92%
CCC1(CC)NC(=O)c2c(c3ccc(Cl)c(Cl)c3n2C)C1C#N (stereo not drawn)	Serine/threonine-protein kinase VRK3 (VRK3, Homo sapiens, UniProt Q8IV63)	thermal stability, thermal shift	–	10 µM	higher = stronger binding	delta Tm	0 °C
Nc1ccc2ccc3cccc4ccc1c2c34	Aryl hydrocarbon receptor (Danio rerio, UniProt Q9YGV3)	reporter gene, agonist, luciferase reporter	ZF-4	1.524 µM	reference: vehicle control	fold change	1.05
CN(C)c1nccc(-c2cnc3ncccn23)n1	Tyrosine-protein kinase ABL1 (ABL1, Homo sapiens, UniProt P00519, Q252H)	KINOMEscan	–	1 µM	–	remaining binding	73%
Nc1ccc(C(=O)O)cc1	BEST1, with wild-type BEST1 (Homo sapiens, UniProt O76090, Q293K)	ion current, whole-cell patch clamp	HEK293 co-expressing mutant and wild-type	concentration not given, voltage -60 mV	–	current density	-2.45 pA/pF and -24.1 pA/pF and -8.93 pA/pF and -6.92 pA/pF and -9.55 pA/pF and -7.26 pA/pF
CCN(CCO)CCCC(C)Nc1ccnc2cc(Cl)ccc12 (stereo not drawn)	Sodium channel protein type 5 subunit alpha (SCN5A, Homo sapiens, UniProt Q14524)	sodium current, whole-cell patch clamp	–	10 µM, without ATX-II	–	inactivation slope factor	5.85 mV/e-fold and 5.88 mV/e-fold and 5.29 mV/e-fold

Repeated from above:
Structure (SMILES)	target	test	test system	conditions	how to read	endpoint	value
CCCCCCCCCCCCC/C=C/[C@@H](O)[C@H](CO)NC(=O)CCCCCCCCCCCCCCC	Protein SET (SET, Homo sapiens, UniProt Q01105)	lipid binding, GFP pull-down LC-MS/MS	A549 overexpressing GFP-tagged protein	ER-targeted construct	reference: eluate plus flow-through	lipid fraction bound	12.3%
